Published values gathered from unrelated publications.
Each line is one published result; not all experiments were run side by side. Several values in a cell are separate wells, animals, samples, runs or records. ± gives the spread as reported.
IDE: Insulin-degrading enzyme (IDE, Homo sapiens, UniProt P14735)

Nc1cccc2c1C(=O)N(C1CCC(=O)NC1=O)C2=O (stereo not drawn)
surface marker level (RPMI-8226; flow cytometry, measured: CD209; concentration not given; relative to: comparator compound alone): 59.4%

O=C(C[C@@H](C(F)F)n1ccc(F)n1)N1CCC(O)(Cn2cnc3c(cnn3-c3ccc(F)cc3)c2=O)CC1
cells in G2/M phase (CHP-212 resistant cells (pooled); PI flow cytometry; 0.3 µM, 24 h): 10.2% and 13.8% and 15.5%

CCn1cc(-c2cc(Cn3ccnc3)cc3c2CCN([C@H](c2cc(OC)ccn2)C2CC2)C3=O)c(C(F)(F)F)n1
EC50 (ML1; cell growth, inhibitor; 120 h): 16.8 µM

CC(NC(=O)c1ccccc1/N=C/c1c(O)ccc2ccccc12)c1ccccc1 (stereo not drawn)
viability (HBL-1; 1 µM, 120 h): 103%

CC[S+]([O-])c1nc(-c2ccccc2)cc(C(F)(F)F)n1 (stereo not drawn)
cells with nuclear RelA (HeLa Kyoto; RelA nuclear import, high content imaging; 0.02 µM, 3 h, added: 1 µM PMA, 60 min): 67.7% and 76.4%

Cc1c(C)c2c(c(C)c1O)CCC(C)(COc1ccc(CC3SC(=O)NC3=O)cc1)O2 (stereo not drawn)
point of departure (HepG2; extracellular flux, measured: oxygen consumption rate; 6 h, distribution mode 2): 5.89 µM

Nc1ccccc1NC(=O)c1ccc(CNC(=O)OCc2cccnc2)cc1
viability (HBL-1; 0.5 µM, 120 h): 36.3%

Cc1nc(NC(=O)N2CCC[C@H]2C(N)=O)sc1-c1ccnc(C(C)(C)C(F)(F)F)c1
GR50 (A2058; resazurin growth rate inhibition; 72 h): > 5 µM

CN(C)C/C=C/C(=O)Nc1cc2c(Nc3ccc(F)c(Cl)c3)ncnc2cc1O[C@H]1CCOC1
spheroid volume (KB-C2 spheroids; 6 µM, day 12, single dose): 12.9 ± 0.7 mm³

Cn1c(Nc2nc3ccc(C(F)(F)F)cc3s2)nc2cc(C(=O)NCCOCCO)ccc21
fold change (SH-SY5Y; RNA-seq, measured: SPOCD1 mRNA; 5 µM, 5 h; relative to: untreated cells): 5.12

O=C(NCc1ccccc1)c1c(/N=C/c2c(O)ccc3ccccc23)sc2c1CCCC2
viability (HBL-1; 1 µM, 120 h): 99%

COc1ccc(-c2nc(N3CCOCC3)c3sc(CN(C)c4ncc(C(=O)NO)cn4)cc3n2)cn1
inhibition (BT-12; cell viability, MTT; 10 µM, 72 h): 94.5%

OC[C@H]1[C@@H](c2ccc(C#Cc3ccccc3F)cc2)[C@@H]2CN(Cc3cncnc3)CCCCN12
EC50 (IDE; enzyme activity, inhibitor, fluorogenic kinetic; added: Mca-RPPGFSAFK(Dnp)-OH substrate): 5.2 µM

CC(C)N(CCCNC(=O)Nc1ccc(C(C)(C)C)cc1)C[C@H]1O[C@@H](n2cc(Br)c3c(N)ncnc32)[C@H](O)[C@@H]1O
viability (HBL-1; 1 µM, 120 h): 117%

CC(C)C[C@@H](C=O)NC(=O)[C@H](CC(C)C)NC(=O)[C@H](CC(C)C)NC(=O)OCc1ccccc1
remaining activity (HeLa expressing Ub(G76V)-GFP; Ub(G76V)-GFP degradation, cycloheximide chase; 0.625 µM; relative to: DMSO): 26.4%

Cc1cc(Nc2ncc(Cl)c(Nc3ccccc3S(=O)(=O)C(C)C)n2)c(OC(C)C)cc1C1CCNCC1
inhibition (BT-12; cell viability, MTT; 10 µM, 72 h): 93.9%

COc1c(Cl)cc2c([nH]c3cnccc32)c1NC(=O)c1cccnc1C
ATP level (hiPSC cardiomyocytes; CellTiter-Glo; concentration not given, 24 h; relative to: vehicle): 106%

c1coc(-c2n[nH]cc2-c2ccnc3ccccc23)c1
log2 fold change (FPK1 (Candida albicans); kinase binding, MIB/MS competition; Candida albicans lysate; 10 µM; relative to: DMSO): -0.07

Nc1nc(Nc2ccc(S(N)(=O)=O)cc2)nn1C(=O)c1c(F)cccc1F
inhibition (HeLa expressing Ub(G76V)-GFP; Ub(G76V)-GFP degradation, cycloheximide chase; 12 µM): 4%

OCc1ccc(Nc2ccc3c(Nc4cccc(C(F)(F)F)c4)ncnc3c2)cc1
late apoptotic cells (MDA-MB-231; annexin V-PE/DAPI; concentration not given, 24 h): 5.02%

Nc1n[nH]c2nc(-c3cccc(O)c3)cc(-c3cc4ccccc4nc3N3CCOCC3)c12
selectivity ratio (NFS-60; MTT; relative to: WI-38 EC50 over NFS-60 IC50): 4.59

Cc1cc(Nc2ncc(Cl)c(Nc3ccccc3S(=O)(=O)C(C)C)n2)c(OC(C)C)cc1C1CCNCC1
log2 fold change (CLB-GE; phosphoproteomics LC-MS/MS, measured: FRS2 phosphorylation; 200 nM, 60 min; relative to: untreated): -2.2

COc1cccc2c1C(=O)c1c(O)c3c(c(O)c1C2=O)C[C@@](O)(C(=O)CO)C[C@@H]3O[C@H]1C[C@H](N)[C@H](O)[C@H](C)O1
inhibition (BT-12; cell viability, MTT; 10 µM, 72 h): 93.5%

Oc1cc(O)cc(/C=C/c2ccc(O)c(O)c2)c1
viability (HBL-1; 1 µM, 120 h): 103%

CCCCN1CCN(c2ccc3[nH]c(-c4ccc5[nH]c(-c6cc(OC)c(OC)c(OC)c6)nc5c4)nc3c2)CC1
growth percent (Hs-578T; SRB; 10 µM, 48 h): 45%

COc1ccc2c(c1)c(C1=C(c3c[nH]c4ccccc34)C(=O)NC1=O)cn2CCCN(C)C
inhibition (HeLa expressing Ub(G76V)-GFP; Ub(G76V)-GFP degradation, inhibitor, cycloheximide chase; 12 µM): 23%

CC/C(=N\NC(=O)NCc1cccc(O)c1)c1ccc(O)c(C)c1O
log ratio (SK-OV-3; gene expression, microarray, measured: CPA4; 10 µM, 24 h; relative to: DMSO): 4.6

COc1ccc(NC(=O)N2CCCCN3[C@H](CO)[C@H](c4ccc(-c5ccccc5C)cc4)[C@@H]3C2)cc1
EC50 (IDE; enzyme activity, inhibitor, fluorogenic kinetic; added: Mca-RPPGFSAFK(Dnp)-OH substrate): 3.4 µM

O=C(O)c1ccc(O)c2ncccc12
viability (HBL-1; 0.5 µM, 120 h): 122%

CCOC(=O)c1c(C)[nH]c(/C=C2\C(=O)Nc3ccccc32)c1C
inhibition (HeLa expressing Ub(G76V)-GFP; Ub(G76V)-GFP degradation, cycloheximide chase; 12 µM): 100%

CC[S+]([O-])c1nc(-c2cccc(OCc3ccccc3)c2)cc(C(F)(F)F)n1 (stereo not drawn)
cells with nuclear RelA (HeLa Kyoto; RelA nuclear import, high content imaging; 0.02 µM, 3 h, added: 1 µM PMA, 60 min): 70.9% and 75.9%

Cn1cc(-c2ccc(-c3cncc(Cl)c3N3CCC4(CCNC4=O)CC3)cc2)cn1
log2 fold change (COLO 205; gene expression, microarray, measured: HIST1H4C mRNA; concentration not given, 2 h; relative to: untreated cells): -1.62

O=C(C=Cc1cc(C(=O)c2ccc(OC3CCCC3)cc2O)ccc1OCc1ccc2c(O)noc2c1)NCCOCCOCCOCCOCCOCCOCCOCCNc1cccc2c1C(=O)N(C1CCC(=O)NC1=O)C2=O (stereo not drawn)
ED50 (FaDu cancer stem cells; tumorsphere formation): 2.22 µM

Nc1nc(Nc2ccc(S(N)(=O)=O)cc2)nn1C(=O)c1c(F)cccc1F
inhibition (BT-12; cell viability, MTT; 10 µM, 72 h): 95.2%

CC(=O)Nc1cccc(-n2c(=O)n(C3CC3)c(=O)c3c(Nc4ccc(I)cc4F)n(C)c(=O)c(C)c32)c1
average fractional effect (LoVo (KRAS G13D); cell viability, resazurin; 50.00 nM, 72 h; relative to: DMSO): 65%

CCC/N=C1\S/C(=C\c2ccc(OC[C@H](O)CO)c(Cl)c2)C(=O)N1c1ccccc1C
log2 fold change (human primary astrocytes; single-cell RNA-seq, measured: SERPINE1 mRNA; concentration not given, 24 h, added: cytokine stimulation; relative to: cytokine alone): 0.656

COc1cc(/C=C/C(=O)N2CCC=CC2=O)cc(OC)c1OC
mRNA level (MDA-MB-468; qRT-PCR, measured: GPX7; 30 µM, 6 h; relative to: time zero): 89.9 ± 19.8%

CC(C)[C@H](C(=O)Nc1ccc(C(=O)NO)cc1)c1ccccc1
viability (HBL-1; 0.1 µM, 120 h): 75.1%

Cl.Cl.OCCOCCN1CCN(Cc2cccc(Oc3ccccc3)c2)CC1
inhibition (BT-12; cell viability, MTT; 10 µM, 72 h): 83.2%

CC1(C)CCC(CN2CCN(c3ccc(C(=O)NS(=O)(=O)c4ccc(NCC5CCOCC5)c([N+](=O)[O-])c4)c(Oc4cnc5[nH]ccc5c4)c3)CC2)=C(c2ccc(Cl)cc2)C1
necrotic cells (THP-1; annexin V/PI flow cytometry, measured: annexin V-/PI+; 1.6 µM, 24 h): 0.1%

O=C(/C=C/c1ccc(O)cc1)c1ccc(O)cc1O
viability (HBL-1; 0.5 µM, 120 h): 113%

COc1cc2ncnc(Nc3ccc(NC(=O)c4ccccc4)cc3)c2cc1OC
inhibition (HeLa expressing Ub(G76V)-GFP; Ub(G76V)-GFP degradation, inhibitor, cycloheximide chase; 12 µM): 23%

COc1cnc2cccc(N3CCc4c(cc(Cn5ccnc5C)cc4-c4cn(C)nc4C(F)(F)F)C3=O)c2c1
EC50 (G-402; cell growth, inhibitor; 120 h): > 30 µM

O=C(/C=C/C=C/C=C/C1CCCCC1)NC1=C[C@@](O)(/C=C/C=C/C=C/C(=O)NC2=C(O)CCC2=O)[C@@H]2O[C@@H]2C1=O
GI50 (NCI-H2110; cell growth, CellTiter-Glo; 78 h): 17.3 µM

CN(C)CCCn1cc(C2=C(c3c[nH]c4ccccc34)C(=O)NC2=O)c2ccccc21
inhibition (HeLa expressing Ub(G76V)-GFP; Ub(G76V)-GFP degradation, inhibitor, cycloheximide chase; 12 µM): 55%

CCn1cc(-c2cc(Cn3ccoc3=N)cc3c2CCN([C@@H](C)c2cc(OC)ccn2)C3=O)c(C(F)(F)F)n1
EC50 (SNU-886; cell growth, inhibitor; 120 h): 3.82 µM

CCc1cccc(CC)c1NC(=O)N1Cc2n[nH]c(NC(=O)c3ccc(N4CCN(C)CC4)cc3)c2C1
inhibition (BT-12; cell viability, MTT; 10 µM, 72 h): 81.6%

COc1cc2ncnc(N3CCN(C(=O)Nc4ccc(Oc5ccccc5)cc4)CC3)c2cc1OC
inhibition (HeLa expressing Ub(G76V)-GFP; Ub(G76V)-GFP degradation, inhibitor, cycloheximide chase; 12 µM): 65%

Some of these lines once more:
CN(C)C/C=C/C(=O)Nc1cc2c(Nc3ccc(F)c(Cl)c3)ncnc2cc1O[C@H]1CCOC1
spheroid volume (KB-C2 spheroids; 6 µM, day 12, single dose): 12.9 ± 0.7 mm³

Cn1c(Nc2nc3ccc(C(F)(F)F)cc3s2)nc2cc(C(=O)NCCOCCO)ccc21
fold change (SH-SY5Y; RNA-seq, measured: SPOCD1 mRNA; 5 µM, 5 h; relative to: untreated cells): 5.12

O=C(NCc1ccccc1)c1c(/N=C/c2c(O)ccc3ccccc23)sc2c1CCCC2
viability (HBL-1; 1 µM, 120 h): 99%

COc1ccc(-c2nc(N3CCOCC3)c3sc(CN(C)c4ncc(C(=O)NO)cn4)cc3n2)cn1
inhibition (BT-12; cell viability, MTT; 10 µM, 72 h): 94.5%

OC[C@H]1[C@@H](c2ccc(C#Cc3ccccc3F)cc2)[C@@H]2CN(Cc3cncnc3)CCCCN12
EC50 (IDE; enzyme activity, inhibitor, fluorogenic kinetic; added: Mca-RPPGFSAFK(Dnp)-OH substrate): 5.2 µM

CC(C)N(CCCNC(=O)Nc1ccc(C(C)(C)C)cc1)C[C@H]1O[C@@H](n2cc(Br)c3c(N)ncnc32)[C@H](O)[C@@H]1O
viability (HBL-1; 1 µM, 120 h): 117%

CC(C)C[C@@H](C=O)NC(=O)[C@H](CC(C)C)NC(=O)[C@H](CC(C)C)NC(=O)OCc1ccccc1
remaining activity (HeLa expressing Ub(G76V)-GFP; Ub(G76V)-GFP degradation, cycloheximide chase; 0.625 µM; relative to: DMSO): 26.4%

Cc1cc(Nc2ncc(Cl)c(Nc3ccccc3S(=O)(=O)C(C)C)n2)c(OC(C)C)cc1C1CCNCC1
inhibition (BT-12; cell viability, MTT; 10 µM, 72 h): 93.9%
